Experimental data gathered from unrelated publications.
Lines come from different studies, so protocols differ. ± gives the spread as reported.

SMILES | tested on | assay | system | setting | scale | endpoint | result
COc1c(O)c(C)cc2c1C(=O)c1c(O)cccc1C2=O | HK-2 co-cultured with HepaRG | MTT | – | 33.33 µM, 24 h | reference: untreated control | viability | 97.6 ± 13.8%
CC[C@H](CO)N(CCN(N=O)[C@H](CC)CO)N=O | Salmonella typhimurium | mutagenicity, Ames plate incorporation | TA100 | 500 µg/plate, without S9, methanol | – | revertant colonies per plate | 137 ± 23
Cc1ccc(-c2ccc3c(c2)C=C(C(=O)Nc2ccc(C[N+](C)(C)C4CCOCC4)cc2)CCC3)cc1.[Cl-] | human immunodeficiency virus 1 | viral attachment, MAGI cell | MAGI cells, Ba-L | CCR5-tropic | reference: TC50 over IC50 | therapeutic index | > 1430
Cc1cc(N)c2c(OCC(C)(C)C(=O)NC(C)C)cccc2n1 | Salmonella typhimurium | reverse mutation, plate incorporation | TA100 | 10 µg/plate, without S9 | – | mean revertant colonies | 74 colonies/plate
Nc1nc2c(ncn2COCCO)c(=O)[nH]1 | HSV-2 strain 333 | viral DNA replication, qPCR | Vero | – | reference: CC50 over IC50 | therapeutic index | > 100
CCOC(=O)c1cccc(Cn2ccc3ccc(-c4ccc5ccn(Cc6cccc(C(=O)O)c6)c5c4)cc32)c1 | human immunodeficiency virus 1 | viral attachment, MAGI cell | MAGI cells, Ba-L | CCR5-tropic | reference: TC50 over IC50 | therapeutic index | 2.52
O=[N+]([O-])c1ccc2c(c1)Cc1ccccc1-2 | Salmonella typhimurium | mini-Ames test | TA98 | 2.0 µg/well, without S9 | – | revertants per well | 308
Cc1cc(Nc2ccc(S(F)(F)(F)(F)F)cc2)n2nc(C(C)(F)F)nc2n1 | Plasmodium vivax | 12-lead ECG | malaria patients | oral, 600 mg, increase above 30 ms | – | patients with QTcB increase | 0%
CN(C)c1ccc(N=NS(=O)(=O)O)cc1 | Salmonella typhimurium | mini-Ames test | TA97a | 2.0 µg/well, without S9 | – | revertants per well | 176
O=C(O)c1cc(O)c2c(c1)C(=O)c1cccc(O[C@@H]3O[C@H](CO)[C@@H](O)[C@H](O)[C@H]3O)c1C2=O | HK-2 co-cultured with HepaRG | MTT | – | 66.67 µM, 48 h | reference: untreated control | cell viability | 72.4 ± 2.57%

Excerpt of the above:
SMILES | tested on | assay | system | setting | scale | endpoint | result
O=[N+]([O-])c1ccc2c(c1)Cc1ccccc1-2 | Salmonella typhimurium | mini-Ames test | TA98 | 2.0 µg/well, without S9 | – | revertants per well | 308
